Assay results pooled from the literature.
Protocols differ between the studies behind these lines.

`Cn1cncc1C1=CN(c2ncnc3[nH]cnc23)CCS1` gave a CC50 of greater than 200000 nM (ACHN; renal cancer).
`COc1c(CCC[P+](c2ccccc2)(c2ccccc2)c2ccccc2)cc2c(c1OC)OCO2.[I-]` has an LC50 of greater than -4 log M (ACHN; SRB).
`CN1CCN(C2(CNC3CCN(c4cccc(-c5cc6cc(F)ccc6[nH]5)c4)CC3)CCC2)CC1` gave a GI50 of 1730 nM (ACHN).
The maximum inhibition of `C[C@@H]1C[C@H]2[C@@H]3CCC4=CC(=O)C=C[C@]4(C)[C@@]3(F)[C@@H](O)C[C@]2(C)[C@@]1(O)C(=O)CO` is reported as 5.96% (human coronavirus OC43; virus-induced cell killing; MRC-5; screen).
`CCN(CC)c1ccc(C=NNC(=O)CSc2nc3ccccc3c(=O)n2Cc2ccc(S(N)(=O)=O)cc2)c(O)c1` has a CC50 of greater than 100000 nM (ACHN; NCI five-dose screen).
`Nc1ncc(-c2nc(N3CCOCC3)nc(N3CCOCC3)n2)c(C(F)F)n1` has a GI50 of 54 nM (ACHN; 72 h).
For `COc1c(C)c2c(c(O)c1C/C=C(\C)CCC(=O)O)C(=O)OC2`, the IC50 was 1070 nM (ACHN; cell proliferation; kidney cancer).
The GI50 of `COc1cc(CCC[P+](c2ccccc2)(c2ccccc2)c2ccccc2)c(OC)c2c1OCO2.[I-]` is reported as -5.39 log M (ACHN; SRB).
`CC1=CC(=O)c2c(O)cccc2C1=O` has a maximum inhibition of 8.26% (human coronavirus OC43; virus-induced cell killing; MRC-5; screen).
`CC(C)N1CCC(NC2CCN(c3cccc(-c4cc5cc(F)ccc5[nH]4)c3)CC2)CC1` has a GI50 of 1780 nM (ACHN).
`Cc1cc(N(CCOS(C)(=O)=O)CCOS(C)(=O)=O)ccc1C(=O)O` gave an IC50 of 18.9 µg/mL (ACHN; cell growth).
